{"data": "Experimental data collected from several papers", "note": "Lines come from different studies, so protocols differ."}
{"Structure (SMILES)": "CC(C)[C@@H]1NC(=O)[C@H](Cc2c[nH]cn2)NC1=O", "cell line": "L-02", "technique": "SRB", "CC50": "> 15 µM"}
{"Structure (SMILES)": "Nc1nc(N)c2nnn([C@@H]3C(F)=C(CO)[C@@H](O)[C@H]3O)c2n1", "cell line": "BHK-D2-Rluc", "technique": "MTT", "time": "48 (unit not given)", "CC50": "> 100 µM"}
{"Structure (SMILES)": "CC(=O)c1c(O)c(C)c(O)c2c1OC1=CC(=O)C(C(C)=O)C(=O)C12C (stereo not shown)", "cell line": "LMH chicken hepatoma cells", "CC50": "71.6 µM"}
{"Structure (SMILES)": "CC(C)=CCc1ncc(/C=C2\\NC(=O)[C@H](C(C)C)NC2=O)[nH]1", "cell line": "L-02", "technique": "SRB", "CC50": "> 15 µM"}
{"Structure (SMILES)": "COC1=CC(c2cc3ccccc3[nH]2)=N/C1=C\\c1[nH]c(C)cc1C", "cell line": "LMH chicken hepatoma cells", "CC50": "41.9 µM"}
{"Structure (SMILES)": "Nc1ncnc2c1nnn2[C@@H]1C(F)=C(CO)[C@@H](O)[C@H]1O", "cell line": "BHK-D2-Rluc", "technique": "MTT", "time": "48 (unit not given)", "CC50": "> 100 µM"}
{"Structure (SMILES)": "Oc1c(I)cc(I)c2cccnc12", "cell line": "LMH chicken hepatoma cells", "CC50": "163 µM"}
{"Structure (SMILES)": "O=C(Nc1ccc2c(c1)OC(F)(F)O2)Nc1ccc(Cl)c(C(F)(F)F)c1", "cell line": "A549", "time": "24 h", "CC50": "15.5 µM"}
{"Structure (SMILES)": "CNc1ncnc2c1nnn2[C@@H]1C(F)=C(CO)[C@@H](O)[C@H]1O", "cell line": "BHK-D2-Rluc", "technique": "MTT", "time": "48 (unit not given)", "CC50": "> 100 µM"}
{"Structure (SMILES)": "N#C[C@@]1(c2ccc3c(N)ncnn23)O[C@H](CO)[C@@H](O)[C@H]1O", "cell line": "primary human hepatocytes", "refers to": "DNA", "time": "4 h", "CC50": "> 100 µM"}
{"Structure (SMILES)": "CSc1ccc(OCc2ncc([N+](=O)[O-])n2C)cc1", "cell line": "LMH chicken hepatoma cells", "CC50": "~200 µM"}
{"Structure (SMILES)": "[N-]=[N+]=N[C@]1(CO)O[C@@H](n2ccc(N)nc2=O)[C@@H](F)[C@@H]1O", "cell line": "DBT-9-hACE2", "read-out": "cytotoxicity", "time": "48 (unit not given)", "CC50": "> 100 µM"}
{"Structure (SMILES)": "O=c1[nH]cnc2c1nnn2[C@@H]1C(F)=C(CO)[C@@H](O)[C@H]1O", "cell line": "BHK-D2-Rluc", "technique": "MTT", "time": "48 (unit not given)", "CC50": "> 100 µM"}
{"note": "A few entries again:"}
{"Structure (SMILES)": "Nc1ncnc2c1nnn2[C@@H]1C(F)=C(CO)[C@@H](O)[C@H]1O", "cell line": "BHK-D2-Rluc", "technique": "MTT", "time": "48 (unit not given)", "CC50": "> 100 µM"}
